Experimental data from different studies.
Each line is one published result; not all experiments were run side by side. Numbers after ± are the reported error. ≈ marks a conversion by molar mass, not a printed value.

COc1cnc(C(=O)Nc2ccc(F)c([C@]34CN(c5ncc(F)cn5)C[C@H]3CSC(N)=N4)c2)cn1 — brain concentration (PDAPP mice, brain; oral, 0.3 mg/kg, 3 h): 0.0281 µM
O=C(CCc1ccc(F)cc1)c1ccccc1OCC(O)CN1CCN(C(c2ccccc2)c2ccccc2)CC1 (centres unmarked) — scaled CLint (metabolic stability; female mouse, liver microsomes; 20 µM, pH 7.4): 33.7 mL/min/kg
C[C@H]1CO[C@@H]2Cn3cc(C(=O)NCc4ccc(F)cc4F)c(=O)c(O)c3C(=O)N12 — tissue/plasma ratio (HIV-infected adults, CSF and plasma; intramuscular, dose not given, total, median, every 4 or 8 weeks; baseline: CSF over plasma): 0.003 to 0.0034
OC[C@@H](O)[C@@H](O)[C@H](O)[C@H](O)CO — effective permeability (equilibrium dialysis; cellulose membrane, cell-free; pH 7.4, together with: 0.1% w/w Pluronic P85): 129 ± 16 ×10⁻⁶ cm/s
QFDEPR — peptide cleavage (substrate, gel electrophoresis; peptide, mouse, PyMT tumour, PyMT tumour tissue extract; 5 µM, 16 h, 37 °C, 2% extract, 1 mM ZnCl2): < 10%
CC(C)CCCCC(=O)N[C@@H](CCN)C(=O)N[C@H](C(=O)N[C@@H](CCN)C(=O)N[C@H]1CCNC(=O)[C@H]([C@@H](C)O)NC(=O)[C@H](CCN)NC(=O)[C@H](CCN)NC(=O)[C@H](CC(C)C)NC(=O)[C@@H](Cc2ccccc2)NC(=O)[C@H](CCN)NC1=O)[C@@H](C)O — mid-interval concentration (UPLC-MS/MS; intensive care patients AKI, plasma; iv, dose not given, 6 h post-dose, steady state, polymyxin B dosing): 600 ± 200 ng/mL
CCOc1nc2cccc(C(=O)OC(C)OC(=O)OC3CCCCC3)c2n1Cc1ccc(-c2ccccc2-c2nnn[nH]2)cc1 (centres unmarked) — thermodynamic solubility (shake-flask; soybean oil; 37 °C): 0.31 ± 0.01 mg/g
COc1cc(F)c(F)c(Nc2ccc(I)cc2F)c1NS(=O)(=O)C1(C[C@H](O)CO)CC1 — AUC(0-8 h) (human patients, plasma; oral, 50 mg twice daily, cycle 1 day 14): 4910 ng·h/mL
C/C=C/C=C/C=C/CC/C=C/C(=O)NCC(C)(C)O — recovery (rat, small intestine site 4 contents; oral, dose not given, 2 h, β-glucuronidase treated; baseline: ingested amount): 0%
CCCOc1ccc([C@H]2CNC(=O)N2c2ccc3[nH]cnc3c2)cc1 — effective half-life (non-elderly adults, fasted, plasma; oral, 200 mg twice daily, day 11, 2 to 12 h postdose, oral solution, geometric mean): 2.72 h
CC(=O)c1c(C)c2cnc(Nc3ccc(N4CCS(=N)(=O)CC4)cn3)nc2n(C2CCCC2)c1=O — thermodynamic solubility (shake flask; water; pH 6.5): 30 µg/mL (≈ 60.5 µM)
CCCC[C@H](NC(C)=O)C(=O)N[C@H]1CCC(=O)NC[C@@H](C(=O)N[C@@H](Cc2c[nH]c3ccccc23)C(N)=O)NC(=O)[C@H](CCCNC(=N)N)NC(=O)[C@@H](Cc2ccccc2)NC(=O)[C@H](Cc2c[nH]cn2)NC1=O — Cmax (CD Sprague-Dawley rat, male, plasma; subcutaneous, 5.0 mg/kg/day, day 1): 1180 ng/mL
COc1ccc(-n2nc(C(N)=O)c3c2C(=O)N(c2ccc(N4CCCCC4=O)cc2)CC3)cc1 — AUC(tau) (healthy Chinese subjects; oral, 10 mg twice daily, day 9): 2700 ng·h/mL
COc1cccc2c1C(=O)c1c(O)c3c(c(O)c1C2=O)C[C@@](O)(C(=O)CO)C[C@@H]3O[C@H]1C[C@H](N)[C@H](O)[C@H](C)O1 — Cmax (mouse, E0771 tumour-bearing, plasma; intravenous, 92 µmol/kg): 7.09 µM
Cc1cc(Nc2cc3ncccc3c(N[C@@H]3C[C@H]4CC[C@@H](C3)N4CCC#N)n2)n[nH]1 — AUC(0-24 h) (dog, female, plasma; oral, 100 mg/kg/day, week 28 day 197, 39-week repeat dose; mean): 3140 ng·h/mL
O=C(C1CCCCC1)N1CC(=O)N2CCc3ccccc3[C@@H]2C1 — apparent oral clearance (healthy men, plasma; oral, 40 mg/kg racemic praziquantel, geometric mean, together with: ritonavir 100 mg/day for 14 days): 2240 L/h
C#C[C@]1(O)CC[C@H]2[C@@H]3CCc4cc(O)ccc4[C@H]3CC[C@@]21C — thermodynamic solubility (shake-flask; PEG400; 37 °C): ≥ 163 mg/g
CCCCCCCCC/C=C/C(=O)CCc1ccc(O)c(OC)c1 — recovery (rat, small intestine site 4 contents; oral, dose not given, 2 h, no β-glucuronidase treatment; baseline: ingested amount): 0.19%
CC(C)NCC(O)c1ccc(NS(C)(=O)=O)cc1 (racemic) — QTc change (male Hartley guinea pig, anaesthetized; intravenous infusion, 10 mg/kg, 10 min infusion; baseline: baseline): 18.9 ± 6.6%
CSc1cc(C)nc(SC)c1NC(=O)CN1CCN(CCSc2nc3ccccc3[nH]2)CC1 — concentration (mouse Crl:CD1 (ICR) female, cerebrum; intranasal repeated, 32.4 µg in 0.01 N HCl, 5 min): 21 ng/g
O=C(O)c1cc(-c2ccc(F)cc2F)ccc1O — thermodynamic solubility (shake-flask; polysorbate 80; 37 °C): 120 ± 12.4 mg/g
CC[C@H](C)[C@@H]1NC(=O)[C@@H]2CSSC[C@H](NC(=O)[C@H](C(C)C)NC(=O)[C@H]([C@@H](C)CC)NC(=O)[C@H](C(C)C)NC(=O)[C@@H](NC(=O)[C@H](CCCCN)NC(=O)[C@@H](N)CCCNC(=N)N)CSSC[C@@H](C(=O)N[C@@H](CCCNC(=N)N)C(=O)O)NC(=O)[C@H](CC(C)C)NC(=O)[C@H]([C@@H](C)CC)NC1=O)C(=O)N[C@@H](CCCNC(=N)N)C(=O)N[C@@H](CCCNC(=N)N)C(=O)N[C@@H](CC(N)=O)C(=O)N[C@@H](CCCNC(=N)N)C(=O)N[C@@H](CCCNC(=N)N)C(=O)N2 — two-disulfide form (LC/MS; PBS; 0.1 mg/mL; baseline: LC peak area): 92%
Cc1nc2cccc(OCC(C)(C)C(=O)NC(C)C)c2c(N)c1C(=O)O — Cmax (male Sprague-Dawley rat, plasma; dietary, 100 mg/kg/day, day 7): 79.2 ng/mL
CCOC(=O)C1=C(C)NC(C)=C(C(=O)OC)C1c1cccc(Cl)c1Cl (centres unmarked) — thermodynamic solubility (shake-flask; Captex 355; 37 °C): 26.4 ± 1.75 mg/g
O=c1cc(-c2ccc(O)cc2)oc2cc(O)cc(O)c12 — Papp A→B (mass spectrometry; Caco-2; 40 µM, 6 h): 1.64 ×10⁻⁶ cm/s
acyl ghrelin (human) — tissue/serum ratio (Ghsr knockout mice, olfactory bulb; intravenous, dose not given, 10 min, vascular space corrected): 7.79 µL/g
Cc1nc(-c2ccc(OCC(C)C)c(C#N)c2)sc1C(=O)O — half-life at steady state (pediatric patients under sample A kg, plasma; oral, 20 mg once daily, fed, PopPK post hoc): 9.53 ± 0.58 h
CC(C)NCCCn1c(Sc2cc3c(cc2I)OCO3)nc2c(N)ncnc21 — urinary excretion (measured: free drug; human; intravenous infusion, 40 mg/m^2, day 1; baseline: dose): 1.9%
Cc1cccc(C)c1OCC(=O)N[C@@H](Cc1ccccc1)[C@@H](O)C[C@H](Cc1ccccc1)NC(=O)[C@H](C(C)C)N1CCCNC1=O — absorptive clearance per length (rabbit, duodenum, in situ perfusion; 30 µg/mL): 0.0049 mL/min/cm
CN[C@H](CC(C)C)C(=O)N[C@H]1C(=O)N[C@@H](CC(N)=O)C(=O)N[C@H]2C(=O)N[C@H]3C(=O)N[C@H](C(=O)N[C@H](C(=O)O)c4cc(O)cc(O)c4-c4cc3ccc4O)[C@H](O)c3ccc(c(Cl)c3)Oc3cc2cc(c3O[C@@H]2O[C@H](CO)[C@@H](O)[C@H](O)[C@H]2O[C@H]2C[C@](C)(N)[C@H](O)[C@H](C)O2)Oc2ccc(cc2Cl)[C@H]1O — peak drug concentration (LC-MS/MS; New Zealand White rabbit, tibial medullary bone; intravenous, 30 mg/kg, 30 min after infusion): 164 ng/µL
COC(=O)C[C@](O)(CCCC(C)(C)O)C(=O)O[C@@H]1C(OC)=C[C@]23CCCN2CCc2cc4c(cc2[C@H]13)OCO4 — tissue concentration (CD1 mice, esophagus; oral, 1 mg/kg, 24 h): not detected
N[C@@H](CC(=O)N1CCn2c(nnc2C(F)(F)F)C1)Cc1cc(F)c(F)cc1F — log AUC(0-72h) (adult UCB transplant recipients, plasma; oral, 600 mg four times, observed median): 9.86 ng·h/mL
CC(C)NC[C@@H](C(=O)N1CCN(c2ncnc3c2[C@H](C)C[C@H]3O)CC1)c1ccc(Cl)cc1 — AUC(0-72 h) (human, Mild hepatic function, plasma; oral, 100 mg single dose, NCI classification, geometric mean): 398 ng·h/mL
O=C(CCCCCCC(=O)Nc1ccccc1)NO — AUC(0-8 h) (human patients, serum; oral, 600 mg twice daily): 10.8 µM·h
CCCC[C@@H]1NC(=O)[C@@H](NC(=O)[C@H](CCC(=O)O)NC(=O)CNC(=O)CN2CCN(CC(=O)O)CCN(CC(=O)O)CCN(CC(=O)O)CC2)CCCCNC(=O)C[C@@H](C(N)=O)NC(=O)[C@H](C(C)C)NC(=O)[C@@H]2CCCN2C(=O)[C@H](CCCNC(=N)N)NC(=O)CNC(=O)[C@H](Cc2c[nH]c3ccccc23)NC(=O)[C@H](CCCNC(=N)N)NC(=O)[C@@H](Cc2ccccc2)NC(=O)[C@H](Cc2c[nH]cn2)NC(=O)[C@H](CCC(=O)O)NC1=O [indium-111 labelled] — tissue uptake (normal C57 mice, heart; intravenous, 0.037 MBq, 4 h): 0.03 ± 0.02 %ID/g
Oc1ccc(C(c2ccc(O)cc2)(C(F)(F)F)C(F)(F)F)cc1 — alpha half-life (measured: free compound; Hsd:Sprague Dawley rat female, plasma; oral gavage, 110 mg/kg single dose): 0.422 h
O=C(CCCN1CCC(O)(c2ccc(Cl)cc2)CC1)c1ccc(F)cc1 — thermodynamic solubility (shake-flask; Captex 355; 37 °C): 2.42 ± 0.08 mg/g
C[N+]1(CC(=O)OC2CCCCCCCCCCC2)CCCCCC1 — microsomal CLint (metabolic stability; male CD-1 mouse, liver microsomes; 1 µM, pH 7.4): 790 µL/min/mg
CNCc1ccc(-c2[nH]c3cc(F)cc4c3c2CCNC4=O)cc1 — half-life (human patients, plasma; oral, 80 mg once daily, day 1, single dose, arithmetic mean): 11 h
COc1cc(OC)c(/C=C/S(=O)(=O)Cc2ccc(OC)c(NCC(=O)O)c2)c(OC)c1 — half-life (cancer patients, phase I, plasma; oral, 140 mg twice daily, day 21 cycle 1): 25.7 ± 38.3 h
Cc1cc(-n2c(=O)[nH]c(=O)n(C)c2=O)ccc1Oc1ccc(SC(F)(F)F)cc1 — thermodynamic solubility (shake-flask; soybean oil; 37 °C): 0.64 ± 0.04 mg/g
CS(=O)(=O)n1cc2c(n1)CN([C@H]1CO[C@H](c3cc(F)ccc3F)[C@@H](N)C1)C2 — renal clearance (male human, urine; oral, 12.5 mg, single dose, fasted, healthy volunteers): 38.3 mL/min
Cc1cccc(Nc2ccccc2C(=O)O)c1C — thermodynamic solubility (shake-flask; PEG400; 37 °C): 25.1 ± 0.86 mg/g
Nc1ncn([C@H]2C[C@H](O)[C@@H](CO)O2)c(=O)n1 — AUC(0-180) (male CD-1 mice, plasma; oral, 167 mg/kg THU + 0.2 mg/kg, day 1): 1.43 µM·h

A few entries again:
CC(C)CCCCC(=O)N[C@@H](CCN)C(=O)N[C@H](C(=O)N[C@@H](CCN)C(=O)N[C@H]1CCNC(=O)[C@H]([C@@H](C)O)NC(=O)[C@H](CCN)NC(=O)[C@H](CCN)NC(=O)[C@H](CC(C)C)NC(=O)[C@@H](Cc2ccccc2)NC(=O)[C@H](CCN)NC1=O)[C@@H](C)O — mid-interval concentration (UPLC-MS/MS; intensive care patients AKI, plasma; iv, dose not given, 6 h post-dose, steady state, polymyxin B dosing): 600 ± 200 ng/mL
Cc1nc2cccc(OCC(C)(C)C(=O)NC(C)C)c2c(N)c1C(=O)O — Cmax (male Sprague-Dawley rat, plasma; dietary, 100 mg/kg/day, day 7): 79.2 ng/mL
Cc1cccc(C)c1OCC(=O)N[C@@H](Cc1ccccc1)[C@@H](O)C[C@H](Cc1ccccc1)NC(=O)[C@H](C(C)C)N1CCCNC1=O — absorptive clearance per length (rabbit, duodenum, in situ perfusion; 30 µg/mL): 0.0049 mL/min/cm
CN[C@H](CC(C)C)C(=O)N[C@H]1C(=O)N[C@@H](CC(N)=O)C(=O)N[C@H]2C(=O)N[C@H]3C(=O)N[C@H](C(=O)N[C@H](C(=O)O)c4cc(O)cc(O)c4-c4cc3ccc4O)[C@H](O)c3ccc(c(Cl)c3)Oc3cc2cc(c3O[C@@H]2O[C@H](CO)[C@@H](O)[C@H](O)[C@H]2O[C@H]2C[C@](C)(N)[C@H](O)[C@H](C)O2)Oc2ccc(cc2Cl)[C@H]1O — peak drug concentration (LC-MS/MS; New Zealand White rabbit, tibial medullary bone; intravenous, 30 mg/kg, 30 min after infusion): 164 ng/µL
Cc1cccc(Nc2ccccc2C(=O)O)c1C — thermodynamic solubility (shake-flask; PEG400; 37 °C): 25.1 ± 0.86 mg/g
